Results collected from several papers.
Numbered parts are unrelated; each lists some results of a single study.

Set 1
Target: Interferon regulatory factor 5, full length, phosphomimetic (IRF5, Homo sapiens, UniProt Q13568-2, residues 1-514, S451D/S453D/S456D/S462D)
Method: protein-binding microarray
Molecule type: double-stranded DNA, one strand shown
Sample: in vitro
Concentration: 940 nM top
Setting: 60-bp whole probe
Added: salmon DNA 0.4 mg/ml
Reference: random background probes
Direction: higher = stronger binding
Shared flanks, not repeated: GCCTAGCAC … GTCTTGATTCGCTTGACGCTGCTG
Oligonucleotide	fitted relative affinity [z-score]
GACGGTTTCCTTTCCGTGACGTGCTAG	1.65
GACGGTTTCGGTATCGGGACGTGCTAG	13.7
GACGGTATCGTGTTTCGGGACGTGCTA	2.62
GACGGTATCGACTTTCGCGACGTGCTA	4.26
TTAGAACTGATTCTCGATTAGTGCTAG	2.16
GACGAACTGGGGAATCGAGACGTGCTA	0.459
TCATTTTTTACTTCGGGACTGTGCTAG	1.01
TTAGGATTGGGTCTCGGTTAGTGCTAG	1.9
GACGGTATCGGGTATCGAGACGTGCTA	4.93
GGTCTTCTGGACTGTTTGGTCGTGCTA	-0.0322
TTAGGTTCAGGTTTCGGTTAGTGCTAG	7.6
TTCGGTCTCGGTTTCGGTTAGTGCTAG	10.3
CAGAATCTCTCATGTTACATTGTGCTA	0.802
AAATCATTTTCTCTGTTCTAGTGCTAG	1.45
TTAGGACTGGGACTGGGTAAGTGCTAG	-0.548
TAGGTTTCACTTTCCAAAACGTGCTAG	10
CACGATTCCAGTTTCGAGACGTGCTAG	4.16
GACGGTATCTTACTGCTGACGTGCTAG	0.0463
TCACTTTTATCCCTGACACTGTGCTAG	1.53

Set 2
Target: Fragile X messenger ribonucleoprotein 1, C-terminal low-complexity region (Fmr1, Mus musculus, UniProt P35922)
Method: RNA Bind-n-Seq
Molecule type: RNA
Sample: in vitro
Concentration: 200 nM
Setting: whole 134-nt RNA, ends assumed
Added: 150 mM LiCl
Reference: input library
Direction: higher = stronger binding
Each molecule: 7-deaza-guanosine replaces G
Shared flanks, not repeated: GGGAGUUCUACAGUCCGACGAUC … UGGAAUUCUCGGGUGUCAAGG
Oligonucleotide	log2 enrichment
GUAGAAAUUCAUGUAUAAAUGGAACCAUAUAGUACAUACAUAUCAUACUCUUAGGUCUGGCAAAUAUUUGAGGUUCAUCCAUAUUUUAUA	-2.08
UCCUGUGCUACACAUCGUAUGUACCGAAUCGGGGUUUGGGGAAAAAGGGGAAAAAGGGGAAAGUAUUAUGUUACGCCGUUCGGAUCUGCA	-0.496
CAAGUCCUGUGCUACACAUCGUAUGUACCGAAUCGGUUUGGGGUUUGGGGUUUGGAAAGUAUUAUGUUACGCCGUUCGGAUCUGCACUUC	-2.09
CCUGUGCUACACAUCGUAUGUACCGAAUCGGGGUUUGGGGUUUUUGGGGUUUUUUUGGGGAAAGUAUUAUGUUACGCCGUUCGGAUCUGC	-0.386
AGUCCUGUGCUACACAUCGUAUGUACCGAAUCGGUUUUGGGGUUUUGGGGUUUUGGGAAAGUAUUAUGUUACGCCGUUCGGAUCUGCACU	-1.58
AUUUGUACACAGACAGGGAAACUGGCAAGCUGAAGGGAGAGGCAACGGUCUCUUUUGAUGACCCACCUUCAGCUAAAGCAGCUAUUGACU	-0.743
ACCAUGCAGGUGGGCAUCUUUGGGAAGUGGGGCAAGGGGGGGAUAGGGAGGGGGGUAACACUUUGGGAAUAGGUGGUCCCAGGUCGUUUC	1.46
UCCUGUGCUACACAUCGUAUGUACCGAAUCGGGGUGGGGAAAAAGGGGAAAAAAAGGGGAAAGUAUUAUGUUACGCCGUUCGGAUCUGCA	-1.44

Set 3
Target: Histone acetyltransferase KAT6A, both winged helices, GST fusion (KAT6A, Homo sapiens, UniProt Q92794, residues 1-181)
Method: protein binding microarray
Molecule type: double-stranded DNA, one strand shown
Sample: in vitro
Concentration: not given
Setting: 8-mer, flanks averaged, mean of 2 arrays, mostly near background
Reference: not given
Direction: higher = stronger binding
Residues (chain): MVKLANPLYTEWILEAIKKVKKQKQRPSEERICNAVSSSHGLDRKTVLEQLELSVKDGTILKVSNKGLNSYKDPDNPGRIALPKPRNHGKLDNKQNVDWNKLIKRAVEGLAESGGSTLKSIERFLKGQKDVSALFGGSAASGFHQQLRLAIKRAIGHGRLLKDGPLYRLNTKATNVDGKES
Oligonucleotide	E-score
CGATGTTA	-0.0679
GGGTGTTA	-0.00085
ACTGACTA	-0.154
ATACTCTC	-0.158
ACCCGAAC	0.143
ATCGGACG	0.0896
CTCGATGA	0.0217
CTCGACCC	-0.0398
ATAGTGAC	-0.0112
ACCGCATA	0.106
ACTGAAGG	-0.108
ACATACCC	-0.123
ATATGCAG	-0.141
GCTTTAAC	-0.0175
CAGTTGGG	-0.167
CATCACGG	0.125
AGGTCGGG	0.0398

Set 4
Target: Phosphate system positive regulatory protein PHO4, full length, GST-tagged (PHO4, Saccharomyces cerevisiae, UniProt P07270, residues 1-312)
Method: competition protein-binding microarray
Molecule type: double-stranded DNA, one strand shown
Sample: in vitro
Concentration: 2 µM
Setting: whole 60-bp probe, lowest competitor level
Added: Cbf1 competitor, 0.05 µM
Direction: higher = stronger binding
Shared flanks, not repeated: … GTCTTGATTCGCTTGACGCTGCTG
Target sequence (chain): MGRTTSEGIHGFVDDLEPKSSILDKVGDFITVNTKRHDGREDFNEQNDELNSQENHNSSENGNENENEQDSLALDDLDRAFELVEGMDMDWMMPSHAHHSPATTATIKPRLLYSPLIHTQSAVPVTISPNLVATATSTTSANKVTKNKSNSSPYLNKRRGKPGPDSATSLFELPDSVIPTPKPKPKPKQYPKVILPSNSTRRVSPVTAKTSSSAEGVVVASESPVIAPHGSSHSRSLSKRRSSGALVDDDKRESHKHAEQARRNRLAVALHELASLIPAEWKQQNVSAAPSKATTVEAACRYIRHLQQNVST
Oligonucleotide	fluorescence intensity
CGGGAAATATTTCAGCATGTGATGTGGCTGAAAATT	9370 a.u.
GGTTCTGTTTCGATGCACGCTAGATTACTCGAACCA	5760 a.u.
ATGTTCCACAATACAAGCGTGACTCGAGACGTAAGG	7000 a.u.
CGATGATGACTACATCATGTGACAGGTTAATGGTCA	7000 a.u.
GAGGATGCTCTCGGCAGCGTGACTCGAATTGAGCCC	5620 a.u.
AGTGTGGTCTTGGCTCTCGTGCCAGCTGCCTCCGTA	6090 a.u.
TCTGGGAGAGCCTGTCAGATGACGAATCAGAAGACA	2780 a.u.
CTAACGAAGGTTTGAAGGGTGGGTGACAAGCCAAGT	4310 a.u.
GTCTTGTCTCATTGGAGTGTGGGTGTCCCCACTTCA	5890 a.u.
CTTCTGTAAATTTGTACCGTGGGTGGACGCGCCCCG	5930 a.u.
AAAGCGGTAATTTGTCACGGAACTTCACATATCTAT	3670 a.u.
TGCGCAACAACTTGCCTAGTGGGTGTATGTCTAGAA	4400 a.u.
CACAGACAGGATAGCTGCGTGGGACAATATTGTTGA	8290 a.u.
GTTCGGTCCAGAGACTTCGTGATGGGCCTGAGGTGG	4630 a.u.
CTTTCCCGATCTTGCACTGTGGGTGTAGCACATTTG	5620 a.u.
CGTCCTAGCGATTGAGGGGTGGGTGCCATGAGGAAG	6650 a.u.
CTTTCGCTGGAAAAGCACGTCCTCGCTAAGAAATTT	6700 a.u.
GGCTATTATGCGATCATCGTGCAAAAATCGGTACTC	9150 a.u.
TTCTGGACGTATCTGCACATGTGTGTTGCTTTTGTT	13800 a.u.

Some of these lines once more (set 1):
Oligonucleotide	fitted relative affinity [z-score]
GACGAACTGGGGAATCGAGACGTGCTA	0.459
CACGATTCCAGTTTCGAGACGTGCTAG	4.16
GACGGTTTCCTTTCCGTGACGTGCTAG	1.65
GACGGTATCGGGTATCGAGACGTGCTA	4.93
GACGGTTTCGGTATCGGGACGTGCTAG	13.7
GACGGTATCGACTTTCGCGACGTGCTA	4.26
TTAGGACTGGGACTGGGTAAGTGCTAG	-0.548
